Experimental data collected from several papers.
Lines come from different studies, so protocols differ. ± marks the error that the study gave.

SMILES	tested on	test	system	setting	how to read	quantity	result
NC1(C(=O)N[C@@H](CCO)c2ccc(Cl)cc2)CCN(c2nc[nH]c3nccc2-3)CC1			metastatic CRPC patients	dose not given, any grade, treatment-related, all doses, with: enzalutamide 160 mg daily		incidence of Blindness	6.7%
COc1c(O)cc2c(c1O)C(=O)c1c(cc(C)c(O)c1OC)C2=O	HK-2 co-cultured with HepaRG	MTT		33.33 µM, 48 h	relative to: untreated control	viability	79.6 ± 7.85%
O=C(O)C[C@H](O)C[C@H](O)/C=C/c1c(C2CC2)nc2ccccc2c1-c1ccc(F)cc1			OATP1B1/1B3 humanized mouse, plasma	oral, 5 mg/kg, geometric mean, with: rifampin 20 mg/kg oral		AUC(0-12h)	1.72 µM·h
COc1ccc2c(=O)n(C)c(-c3ccccc3)nc2c1			male Sprague-Dawley rat, bladder	oral, 30 mg/kg, 2 h		tissue concentration	154 ng/g
OC[C@H]1O[C@@H](c2ccc(F)c(Cc3cc4ccccc4s3)c2)[C@H](O)[C@@H](O)[C@@H]1O			Japanese patients, type 1 diabetes	oral, 25 mg/day, onset day 4	relative to: patients	hypoglycaemia-related adverse event	2%
CC1(C)CC[C@]2(NC(=O)C(C)(F)F)CC[C@]3(C)[C@H](C(=O)C=C4[C@@]5(C)C=C(C#N)C(=O)C(C)(C)[C@@H]5CC[C@]43C)[C@@H]2C1			human, plasma	oral, 150 mg, day 23 predose, geometric mean		trough plasma concentration	35 ng/mL
CCN1CCN(Cc2ccc(Nc3ncc(F)c(-c4cc(F)c5nc(C)n(C(C)C)c5c4)n3)nc2)CC1			human, plasma	oral, absorption model estimate		Km	53.6 µM
C[C@@H]1CCO[C@H]2Cn3cc(C(=O)NCc4ccc(F)cc4F)c(=O)c(O)c3C(=O)N12		population PK, post-hoc	children, 10 to <14 kg, plasma	oral, 15 mg dispersible tablet, steady state, geometric mean		AUC(0-24)	53000 ng·h/mL
C[C@@H]1CN(CC(=O)N2CC(C)(C)c3nc(CO)c(Cc4ccc(F)cc4)cc32)[C@@H](CN2CCOC[C@H]2C)CN1			cynomolgus monkey, male	oral, 5 mg/kg		AUC(0-last)	525 ± 187 ng·h/mL
CC(C)(C(=O)N1CCOc2c(C#N)cncc2C1)C(F)F		measured: upper abdominal pain	human	oral, 20 mg once daily, 14 days, multiple ascending dose		subjects with adverse event	0%
CCN1CCN(Cc2ccc(Nc3ncc(F)c(-c4cc(F)c5nc6n(c5c4)[C@H](C)CCC6)n3)nc2)CC1			human, plasma	500 mg single dose, mean		CL/F	33.2 L/h
Cc1cc(O)c2c(c1)C(=O)c1cc(O)cc(O)c1C2=O	HK-2 co-cultured with HepaRG	MTT		33.33 µM, 48 h	relative to: untreated control	viability	81.7 ± 19.4%
O=C(c1cccnc1-c1ccncc1)N1CCC(O)(Cc2ccccc2)CC1			human, plasma	oral, single analyte model		slope, QTcF-concentration relationship	0.00013 ms/(ng/mL)
CCn1c(=O)c2c(nc(/C=C/c3ccc(OC)c(OC)c3)n2C)n(CC)c1=O		HPLC	solution, dark	before light exposure		purity	99.4%
C[C@@H](c1ncncc1F)[C@](O)(Cn1cncn1)c1ccc(F)cc1F			human	oral, 200 mg, drug interaction trial		serious TEAE	0%
Cn1cc(Nc2nccc(-c3ccc4c(c3)CN(C3COC3)CC[C@H]4NC(=O)c3cn(C(C)(C)C)nn3)n2)cn1			human, whole blood	50 mg twice daily, day 7	relative to: pre-dose baseline	lymphocyte count change	28.3%
CNC(=O)c1cc(Oc2ccc(NC(=O)Nc3ccc(Cl)c(C(F)(F)F)c3)c(F)c2)ccn1			FaSSIF	literature solubility over dose		dose-adjusted solubility	9.7e-05 mL⁻¹
Cc1cc(-c2nccc3c2ccn3CC(=O)Nc2ccc(-c3cnccn3)cn2)ccn1			human	SAD part, single 40 mg dose		subjects with grade 1 TEAE	16.7%
CO[C@@H]1[C@H](OC(=O)N2CC(CCN3CCOCC3)C2)CC[C@]2(CO2)[C@H]1[C@@]1(C)O[C@@H]1CC=C(C)C			human	dose not given, day 28, multiple ascending dose, unit not given	relative to: baseline	INR change	0.01 ± 0.04

Some of these lines once more:
SMILES	tested on	test	system	setting	how to read	quantity	result
CCn1c(=O)c2c(nc(/C=C/c3ccc(OC)c(OC)c3)n2C)n(CC)c1=O		HPLC	solution, dark	before light exposure		purity	99.4%
C[C@@H](c1ncncc1F)[C@](O)(Cn1cncn1)c1ccc(F)cc1F			human	oral, 200 mg, drug interaction trial		serious TEAE	0%
Cn1cc(Nc2nccc(-c3ccc4c(c3)CN(C3COC3)CC[C@H]4NC(=O)c3cn(C(C)(C)C)nn3)n2)cn1			human, whole blood	50 mg twice daily, day 7	relative to: pre-dose baseline	lymphocyte count change	28.3%
